Published values pooled from the literature.
Parts stem from different laboratories: compare values within a part only. Changes are numbered by the printed parent chain.

Block 1
Target: CCND3, cyclin fold, Cln2 fusion (human)
Technique: yeast growth competition, sequencing
Medium: yeast
Setting: weak parent motif
Reference: not given
Reading: higher = stronger binding
Starting sequence: PKMYT1 docking peptide (human); SFEPRNLLSLFED
Substitution | normalised enrichment score
SFEPRNLLRLFED [S9R] | 0.0586
SVEPRNLLSLFED [F2V] | 0.0428
SFEPFNLLSLFED [R5F] | 0.103
SFEQRNLLSLFED [P4Q] | 0.168
SFEPRNLLSPFED [L10P] | 0.0588
QFEPRNLLSLFED [S1Q] | 0.0376
SFEPRNALSLFED [L7A] | 0.138
SFEPRFLLSLFED [N6F] | 0.214
SFEPRNLLVLFED [S9V] | 0.125
SFNPRNLLSLFED [E3N] | 0.00704
SFEPRNLLSLFND [E12N] | 0.0546
SFEPRNLLMLFED [S9M] | 0.0655
SFEPRPLLSLFED [N6P] | 0.0684
SFEPRNLLILFED [S9I] | 0.0687
DFEPRNLLSLFED [S1D] | 0.103
SFRPRNLLSLFED [E3R] | 0.02

Block 2
Target: Histone acetyltransferase KAT6A, winged helix 2, GST fusion (KAT6A, Homo sapiens, UniProt Q92794, residues 85-181)
Technique: protein binding microarray
Form: double-stranded DNA, one strand shown
Medium: in vitro
Concentration: not given
Setting: 8-mer, flanks averaged, mean of 2 arrays, mostly near background
Reference: not given
Reading: higher = stronger binding
Target sequence (chain): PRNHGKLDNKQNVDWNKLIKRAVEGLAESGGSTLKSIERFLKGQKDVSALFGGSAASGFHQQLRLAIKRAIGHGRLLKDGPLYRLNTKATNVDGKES
Strand | E-score
AAGTTGTA | -0.0619
GGGATCCC | 0.156
AGATTCCC | -0.122
CCGGAGCG | 0.159
CGCTCTCA | -0.088
GGATAACA | -0.175
GACCAAAC | -0.0329
GAAAGCGC | 0.203
ACAGGTAA | -0.117
CAGGTCCC | 0.179
AAATCCCG | 0.000195
GTCGTCAC | -0.0512
ACGGCGCT | 0.0127
CCCCTTAA | -0.153
TGGCTCAA | -0.112
TATCGTCA | -0.000525
AGTATGCG | -0.0266
ACGCTCTC | -0.09
CAAAGCTG | 0.0794
ACTGAGGA | 0.108
AGGCGGTA | 0.125
AATACAGC | 0.00132
ATTGGCAG | -0.214
AGGCCTTA | -0.217
CGAAGTTC | 0.078

Block 3
Target: Sal-like protein 4, full length isoform B (SALL4, Homo sapiens, UniProt Q9UJQ4-2, residues 1-616)
Technique: universal PBM
Form: double-stranded DNA, one strand shown
Medium: in vitro
Concentration: not given
Setting: 8-mer, flanks averaged, mean of replicates
Reading: higher = stronger binding
Construct (chain): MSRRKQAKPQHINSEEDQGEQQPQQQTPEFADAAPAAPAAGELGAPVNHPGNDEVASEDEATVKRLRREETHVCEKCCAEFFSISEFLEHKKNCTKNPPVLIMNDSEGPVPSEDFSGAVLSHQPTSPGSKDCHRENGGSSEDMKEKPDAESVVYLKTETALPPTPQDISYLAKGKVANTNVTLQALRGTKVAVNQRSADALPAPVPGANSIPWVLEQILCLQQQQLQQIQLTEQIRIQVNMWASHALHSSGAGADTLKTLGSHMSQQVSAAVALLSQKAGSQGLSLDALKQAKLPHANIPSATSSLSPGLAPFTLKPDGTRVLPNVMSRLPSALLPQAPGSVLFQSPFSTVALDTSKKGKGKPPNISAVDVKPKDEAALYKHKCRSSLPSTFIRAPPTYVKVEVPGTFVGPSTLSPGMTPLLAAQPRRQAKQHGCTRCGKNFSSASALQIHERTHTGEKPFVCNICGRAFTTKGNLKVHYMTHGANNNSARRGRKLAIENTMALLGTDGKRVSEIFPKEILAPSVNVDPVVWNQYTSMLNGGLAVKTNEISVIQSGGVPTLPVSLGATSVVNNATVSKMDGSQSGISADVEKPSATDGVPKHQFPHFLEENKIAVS
Strand | E-score
AAGGCGCG | -0.204
GCTACGCA | -0.146
CAGTCATC | -0.112
GGGCTTGA | -0.246
CATGAATC | 0.049
CGTACACG | 0.0386
AGGCTAGC | -0.00154
TAAGCCGA | 0.0454
AGTGGCGC | -0.104
AGGGTGCC | -0.0701
AGGTAGCG | -0.106
CCCGATGA | 0.0415
AAGCAGCT | -0.166
GAGCGTCA | -0.151
GATTGACA | 0.123
AAGGTGTG | -0.0167
CTGACATA | 0.184
ACGGGGCG | -0.199
TAATTGAA | 0.277
GCCCTATA | 0.145
ACATGGCA | -0.0308
AAGATTAC | 0.126
GGAAAGGA | -0.131

Block 4
Target: Prothrombin, mature alpha-thrombin (F2, Homo sapiens, UniProt P00734)
Technique: aptamer microarray, sandwich
Form: DNA with 2'F-ANA
Medium: in vitro
Concentration: 200 nM
Setting: whole 15-mer aptamer, many near background
With: Cy3 exosite-II aptamer, 400 nM
Reading: higher = stronger binding
Strand: GGTTGGTGTGGTTGG
Modification | mean fluorescence intensity [a.u.]
2'F-ANA at 1 5 6 7 8 11 13 14 15 | 46.5
2'F-ANA at 3 6 7 9 12 13 14 15 | 489
2'F-ANA at 1 2 3 4 5 6 8 10 11 14 | 50.3
2'F-ANA at 1 2 3 4 5 6 8 11 12 15 | 95.5
2'F-ANA at 1 2 4 5 6 8 12 13 15 | 78.4
2'F-ANA at 1 2 7 10 11 14 | 48.1
2'F-ANA at 6 10 12 13 14 | 118
2'F-ANA at 1 2 4 5 8 9 12 14 | 48.4
2'F-ANA at 1 2 3 5 9 13 14 15 | 44.3
2'F-ANA at 1 3 4 5 8 10 12 13 14 15 | 61.6
2'F-ANA at 2 6 9 14 15 | 122
2'F-ANA at 1 2 3 4 6 7 10 11 13 | 54
2'F-ANA at 1 2 4 6 8 12 13 14 | 61
2'F-ANA at 1 2 4 8 9 11 13 15 | 86.4
2'F-ANA at 4 10 12 13 14 | 64.2
2'F-ANA at 2 3 4 5 6 7 9 12 | 219
2'F-ANA at 3 4 5 6 7 9 12 14 15 | 166
2'F-ANA at 1 5 8 11 12 14 | 44.7
2'F-ANA at 1 2 3 4 5 6 7 8 10 11 12 13 15 | 73.8
2'F-ANA at 2 4 5 7 9 10 14 | 44.9
2'F-ANA at 7 11 12 | 791
2'F-ANA at 1 2 3 4 6 7 14 | 59.1
2'F-ANA at 1 6 7 9 12 13 14 | 58.1
2'F-ANA at 6 7 8 9 10 11 12 13 | 152
2'F-ANA at 3 4 6 8 10 11 15 | 204

Block 5
Target: RNA binding protein fox-1 homolog 2, RRM domain, GST-SBP tag (RBFOX2, Homo sapiens, UniProt O43251-10, residues 100-194)
Technique: RNA Bind-n-Seq
Form: RNA
Medium: in vitro
Concentration: 365 nM
Setting: natural RNA segment, single round, ends assumed
Reference: no-protein control
Reading: higher = stronger binding
All sequences stand within: GGGAGUUCUACAGUCCGACGAUC … UGGAAUUCUCGGGUGCCAA
Construct (chain): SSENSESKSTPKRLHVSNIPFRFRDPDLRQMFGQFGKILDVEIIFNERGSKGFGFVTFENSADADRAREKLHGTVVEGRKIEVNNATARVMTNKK
Strand | RBNS enrichment (R)
ACCACCUUUUACUGCACAAUUCACAAGCAUGUUUUCCUGGUGAAUUGGACUGAAAAUUACAUUUUGACAACUUUUUUUCCUUUUAUCCCCAACUUUUGCCAGAAAGCAGA | 4.57
CCAUAGCCCUCCUGAUGCAGUAGACAGUGCUAUGCUGUGGAUAUAAUACCAACCAGAAAUUGGCAUUUAUAAACCUGUUAAGAGACUUUAAGCAUGCUUCAAGAGGCAGU | 0.474
AGCUGUUCCUGUGUUCUUCGUAUAUACACACAAAAAGGAGCGGGCAGGGCCGCUCGAUGCCUUUGCUGUUUAGCUUCCUCCAGAGGAGGGGACUUGUAGGAAUCUGCCUU | 0.341
UGUGUCAAUGAAUGGAAGCAGGUGCACCCUGAAGACCACAAGUUAAAUAAAUACCAUGACUGGCUUUGGGAGAAUCAUGAAAAAUUAAGUCUAUCUUGAAGCUGCCUGUU | 1.14
ACUUCCUUUCCCAUGAACACUUGCAGUUGCUAAGGGACUUUAUUUUGUAACAUAUUAAUUAUAAAUAUUGUAUUUAUCUUUGAAAUUUUGUACAUUGCUUUCCCUGCCUU | 1.14
AGGCAAUACAGUGGGACAGUUAGGAAUGCACCCGGGGCCUCCUGCAGAUUUCGGAAAUUGGCAAGCUACGGGAUUCCUUCCUGAAAGAUCAACUGUGUCUUAAGGCUCUC | 0.508
GAUAAAUAGCAAGAAUGGAUGUGUAAUGUGACAAUCAAGGCAGAUAUUUGUUCUAGUUGGAAAGACGAAGCACUUUAUAAGCAUCAGACAAGUGUUUGGGACUAAUUGAG | 0.799
CUGGAAGACCAUUCCAACUUGGACGCGUUACCAUGAGAGCAUAUCCUAUCCAACCGUACUAACGUGGACACCCUACACCUCCCCUCAGAACUUCAAAAGGGCAAGAUCUU | 0.327
AGGUAGGGUUUAAAGACCCCCAGUGGGAGCAUUUAGAUGGCAGGCGGCUGCAAGGAGUCUGCAGUGGUAACAGCUUCUCUCUAGCCUGGCUGGCUUUGGUAGGCAAAAGU | 0.485
GUCAUUGAGUAUUGAAGCCAUGACCUGGACUUCUGAAGGCUGUGACUUCACUAGAGCUAAGACACUGCUGGCAUUGUGGCCCCAUCCUUCCAAGACACAGGGAAGGAAGG | 0.431
CUCCUCUUUUACUAACUCCACCCUUUCUCAUCUCUGGGACCCAGCAGGGACCUGGAGAGGCCAACAGCCACUGCUACCUUUGUAGUCUUCAAAAUAUUGAACUGCAGGUC | 0.423
ACAGUUAUGUGGUGGGUCCCUGCUAAAAUCUCCCUGACCACCUGAGGGCAUAAAGCAUGUGUCUUAUCUCUGGUCUCAUGGUGAUCUUUGCUGGGGAGACAAUGUGGGAU | 2.59

Block 6
Target: Ras GTPase-activating protein-binding protein 1, C-terminal RGG region (G3BP1, Homo sapiens, UniProt Q13283)
Sequence of UniProt Q13283 (whole entry, looked up): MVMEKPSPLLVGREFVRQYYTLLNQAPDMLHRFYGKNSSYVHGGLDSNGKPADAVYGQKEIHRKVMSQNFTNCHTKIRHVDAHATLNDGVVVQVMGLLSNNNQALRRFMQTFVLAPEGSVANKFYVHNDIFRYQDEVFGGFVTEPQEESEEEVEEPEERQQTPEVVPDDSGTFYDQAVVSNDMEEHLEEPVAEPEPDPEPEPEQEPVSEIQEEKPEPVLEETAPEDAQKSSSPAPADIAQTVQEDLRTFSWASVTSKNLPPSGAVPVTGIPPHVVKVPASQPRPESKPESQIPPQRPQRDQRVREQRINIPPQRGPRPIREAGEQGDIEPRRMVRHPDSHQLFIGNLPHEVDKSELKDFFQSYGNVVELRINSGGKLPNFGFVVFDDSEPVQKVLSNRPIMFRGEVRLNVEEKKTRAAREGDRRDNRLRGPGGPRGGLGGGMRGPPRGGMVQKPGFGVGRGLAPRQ
Technique: RNA Bind-n-Seq
Form: RNA
Medium: in vitro
Concentration: 1 µM
Setting: whole 134-nt RNA, ends assumed
With: 150 mM KCl
Reference: input library
Reading: higher = stronger binding
All sequences stand within: GGGAGUUCUACAGUCCGACGAUC … UGGAAUUCUCGGGUGUCAAGG
Strand | log2 enrichment
CUCAAGUCCUGUGCUACACAUCGUAUGUACCGAAUCGGGAGGGGAGGGAGGGGAAAGUAUUAUGUUACGCCGUUCGGAUCUGCACUUCCA | 3.41
CUGUGCUACACAUCGUAUGUACCGAAUCGGGGUUUUUUUGGGGUUUUUUUGGGGUUUGGGGAAAGUAUUAUGUUACGCCGUUCGGAUCUG | -0.471
GUCCUGUGCUACACAUCGUAUGUACCGAAUCAAAUUUUUAAACCCCCAAAUUUUUAAAAAAGUAUUAUGUUACGCCGUUCGGAUCUGCAC | -0.285
CACAUACAACACGCACCCACACAGACACAGAGGGAAGGGGUUGGGAUGGGGACAGGGUGCACAGCAGGGCGGGGUAGGACCCCAGCCCCU | -0.212
CAAGUCCUGUGCUACACAUCGUAUGUACCGAAUCGGGGCCGGGGCCGGGCCGGGGAAAGUAUUAUGUUACGCCGUUCGGAUCUGCACUUC | -0.685
CUGUGCUACACAUCGUAUGUACCGAAUCAAAUUUUUUUAAAUUUUUUUAAACCCCCCCAAAAAAGUAUUAUGUUACGCCGUUCGGAUCUG | -0.847
AGUCCUGUGCUACACAUCGUAUGUACCGAAUCGGGUUUUGGGUUUUGGGUUUUGGGGAAAGUAUUAUGUUACGCCGUUCGGAUCUGCACU | 1.66
UCAAGUCCUGUGCUACACAUCGUAUGUACCGAAUCGGGGUUUGGUUUGGUUUGGAAAGUAUUAUGUUACGCCGUUCGGAUCUGCACUUCC | -0.546
UCCUGUGCUACACAUCGUAUGUACCGAAUCGGGAAAGGGAAAAAAAGGGAAAAAAAGGGAAAGUAUUAUGUUACGCCGUUCGGAUCUGCA | -0.656
UUUUUCCAGAGCUCACAACGACCUGGGGCUGAGGACAAUGUCCUCAAUGAGAUCGUGAGUAUCUUGCAGCCCACCCAGGUCCCUGAGCAG | -1.4
UCAAGUCCUGUGCUACACAUCGUAUGUACCGAAUCGGGUUGGGGUUGGGGUUGGAAAGUAUUAUGUUACGCCGUUCGGAUCUGCACUUCC | 0.351
ACCAUGCAGGUGGGCAUCUUUGGGAAGUGGGGCAAGGGGGGGAUAGGGAGGGGGGUAACACUUUGGGAACAGGUGAUCCCAGGUCGUUUC | 2.13
UCAAGUCCUGUGCUACACAUCGUAUGUACCGAAUCGGAGGUUUUUGGAAAAAGGAAAGUAUUAUGUUACGCCGUUCGGAUCUGCACUUCC | -1.52

For quick reference, copied from above (block 3):
Strand | E-score
CATGAATC | 0.049
CGTACACG | 0.0386
AGGCTAGC | -0.00154
TAAGCCGA | 0.0454
AGTGGCGC | -0.104
AGGGTGCC | -0.0701
AGGTAGCG | -0.106
CCCGATGA | 0.0415
AAGCAGCT | -0.166
GAGCGTCA | -0.151
GATTGACA | 0.123
AAGGTGTG | -0.0167
CTGACATA | 0.184
ACGGGGCG | -0.199
TAATTGAA | 0.277
GCCCTATA | 0.145
ACATGGCA | -0.0308
AAGATTAC | 0.126
GGAAAGGA | -0.131
